# Assay results gathered from unrelated publications.
# Numbered parts are unrelated; each lists some results of a single study. Numbers after ± are the reported error.

# Series 1
# Target: SPT15 full length assumed (Saccharomyces cerevisiae, UniProt P13393)
# Technique: array
# Molecule type: double-stranded DNA, one strand shown
# Notes: TBP alone
# Library: dsDNA; 5'-amino-C6 primer
# Target sequence (chain): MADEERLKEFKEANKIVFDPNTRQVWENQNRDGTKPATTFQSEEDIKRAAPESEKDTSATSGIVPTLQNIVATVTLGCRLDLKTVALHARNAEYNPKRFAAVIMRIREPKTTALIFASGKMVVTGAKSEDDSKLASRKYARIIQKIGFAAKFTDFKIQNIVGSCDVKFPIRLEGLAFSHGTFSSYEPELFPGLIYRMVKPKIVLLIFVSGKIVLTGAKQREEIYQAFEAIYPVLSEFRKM
Sequence,Kd [nM]
ATGATGTCCTTTTCCAAAAACGCCACTCCTAGAGCTCAAGTCAATCGGTCC,32 ± 2.9
TTCCTGAAGGGGGGCTATAAAAGGGGGTGGGGGCGTCAAGTCAATCGGTCC,12.4 ± 0.75
CTCAGGAATTCCTACAAAGTAATGTGGAGCTCAGTTCAAGTCAATCGGTCC,42.5 ± 3.45

# Series 2
# Observed: enzyme activity
# Technique: NADH absorbance
# Notes: with fumarate 3 mM
# With: L-malate varied
Molecule,Hill coefficient
human ME2 R70K,1.13 ± 0.09
human ME2 P78D,1.04 ± 0.03
human ME2 F68V,1.29 ± 0.03

# Series 3
# Cell line: CYB5R4 knockout human cells
# Observed: PP4 interaction
# Technique: 3xFLAG-PP4C IP-MS
# Tested at: concentration not given
# Baseline: CYB5R4 KO over parental
# B1: CPSF7, human; sequence looked up; chain MSEGVDLIDIYADEEFNQDPEFNNTDQIDLYDDVLTATSQPSDDRSSSTEPPPPVRQEPSPKPNNKTPAILYTYSGLRNRRAAVYVGSFSWWTTDQQLIQVIRSIGVYDVVELKFAENRANGQSKGYAEVVVASENSVHKLLELLPGKVLNGEKVDVRPATRQNLSQFEAQARKRECVRVPRGGIPPRAHSRDSSDSADGRATPSENLVPSSARVDKPPSVLPYFNRPPSALPLMGLPPPPIPPPPPLSSSFGVPPPPPGIHYQHLMPPPPRLPPHLAVPPPGAIPPALHLNPAFFPPPNATVGPPPDTYMKASAPYNHHGSRDSGPPPSTVSEAEFEDIMKRNRAISSSAISKAVSGASAGDYSDAIETLLTAIAVIKQSRVANDERCRVLISSLKDCLHGIEAKSYSVGASGSSSRKRHRSRERSPSRSRESSRRHRDLLHNEDRHDDYFQERNREHERHRDRERDRHH
# B2: human RBMX; sequence looked up; chain MVEADRPGKLFIGGLNTETNEKALEAVFGKYGRIVEVLLMKDRETNKSRGFAFVTFESPADAKDAARDMNGKSLDGKAIKVEQATKPSFESGRRGPPPPPRSRGPPRGLRGGRGGSGGTRGPPSRGGHMDDGGYSMNFNMSSSRGPLPVKRGPPPRSGGPPPKRSAPSGPVRSSSGMGGRAPVSRGRDSYGGPPRREPLPSRRDVYLSPRDDGYSTKDSYSSRDYPSSRDTRDYAPPPRDYTYRDYGHSSSRDDYPSRGYSDRDGYGRDRDYSDHPSGGSYRDSYESYGNSRSAPPTRGPPPSYGGSSRYDDYSSSRDGYGGSRDSYSSSRSDLYSSGRDRVGRQERGLPPSMERGYPPPRDSYSSSSRGAPRGGGRGGSRSDRGGGRSRY
# B3: human calpain-1; sequence looked up; chain SEEIITPVYCTGVSAQVQKQRARELGLGRHENAIKYLGQDYEQLRVRCLQSGTLFRDEAFPPVPQSLGYKDLGPNSSKTYGIKWKRPTELLSNPQFIVDGATRTDICQGALGDCWLLAAIASLTLNDTLLHRVVPHGQSFQNGYAGIFHFQLWQFGEWVDVVVDDLLPIKDGKLVFVHSAEGNEFWSALLEKAYAKVNGSYEALSGGSTSEGFEDFTGGVTEWYELRKAPSDLYQIILKALERGSLLGCSIDISSVLDMEAITFKKLVKGHAYSVTGAKQVNYRGQVVSLIRMRNPWGEVEWTGAWSDSSSEWNNVDPYERDQLRVKMEDGEFWMSFRDFMREFTRLEICNLTPDALKSRTIRKWNTTLYEGTWRRGSTAGGCRNYPATFWVNPQFKIRLDETDDPDDYGDRESGCSFVLALMQKHRRRERRFGRDMETIGFAVYEVPPELVGQPAVHLKRDFFLANASRARSEQFINLREVSTRFRLPPGEYVVVPSTFEPNKEGDFVLRFFSEKSAGTVELDDQIQANLPDEQVLSEEEIDENFKALFRQLAGEDMEISVKELRTILNRIISKHKDLRTKGFSLESCRSMVNLMDRDGNGKLGLVEFNILWNRIRNYLSIFRKFDLDKSGSMSAYEMRMAIESAGFKLNKKLYELIITRYSEPDLAVDFDNFVCCLVRLETMFRFFKTLDTDLDGVVTFDLFKWLQLTMFA
Molecule,log2 fold change
"B1 (CPSF7, human)",-3.58
B2 (human RBMX),0.018
B3 (human calpain-1),0.3

# Series 4
# Target: U2AF2 148-342 (Homo sapiens, UniProt P26368)
# Chain of UniProt P26368 (whole entry, looked up): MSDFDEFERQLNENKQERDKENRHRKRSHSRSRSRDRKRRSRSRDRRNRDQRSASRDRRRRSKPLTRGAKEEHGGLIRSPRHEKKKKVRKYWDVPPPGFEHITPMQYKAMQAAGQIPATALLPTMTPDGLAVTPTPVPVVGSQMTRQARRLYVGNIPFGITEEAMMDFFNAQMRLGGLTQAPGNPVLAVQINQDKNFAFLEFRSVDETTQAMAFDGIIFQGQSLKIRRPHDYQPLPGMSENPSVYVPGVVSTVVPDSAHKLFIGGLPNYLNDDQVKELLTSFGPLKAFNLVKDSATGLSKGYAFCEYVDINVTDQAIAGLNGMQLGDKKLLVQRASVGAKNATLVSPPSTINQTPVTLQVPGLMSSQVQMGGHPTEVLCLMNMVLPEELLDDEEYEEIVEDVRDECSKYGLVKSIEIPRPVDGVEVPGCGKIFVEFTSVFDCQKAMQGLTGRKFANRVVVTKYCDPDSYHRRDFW
# Technique: sequencing of bound RNA
# Molecule type: RNA
# Notes: motif only
# Library: ssRNA
Sequence,Kd [nM]
CUUAUCUUU,2110
UUUACACUA,11000
UUCCAACUU,3620
